Experimental data gathered from unrelated publications.
± gives the spread as reported.
B1: acsA (Pseudomonas chlororaphis, UniProt Q5CD72); chain MRDYEHVVESFDYLQSATQDLHGELTALNACVECCDRHAHGEAVALYCEAQDGHAERYRFRDLQRQAARFGNFLREQGVKPGDRVAGLMPRTVELLIAILGTWRIGAVYQPLFTAFGPKAIEQRLNCSNARWIVTDPHNRPKLDDVTDCPSIVVTGGAPQNPADHHFWSALNRQADDCAPVLLDASAPFLLMCTSGTTGPAKPLEVPLSAILAFKGYMRDAIDLRADDRFWNLADPGWAYGLYYAVTGPLACGYATLFYDGPFTVESTRHIIAKYAINNLAGSPTAYRFLIAAGAEFADAVRGRLRAVSSAGEPLNPQVVRWFAEQLGVVIHDHYGQTEIGMVLCNHHGLRHPVREGSAGYAVPGYRIVVLDKAHRELPAGQPGVLAVDRERSPLCWFDGYLGMPTQAFAGRYYLSGDIVELNDDGSISFVGRNDDLITTSGYRVGPFDVESALIEHPAVVEAAVIGKPDPQRTELIKAFVVLNTPYLPSPELAEELRLHVRQRLAAHAYPREMEFVDHLPKTPSGKLQRFILRNQEIAKQQALG
B2: enzyme C76S (UniProt A0A0P0CH59); chain MRIALFSDIHANLPALEAVLANMETQQLDAIYCLGDLVGYAPWPNEVVAEIRKRRIPTIAGNYDEGVGLWSPNCGSAYKTDTEKDLGQQSIDFTNNVVTEETRKYLRMLPRQLRLTFMDGSKEENKIELLLVHGSPRKINEYLFEDRPEKSFLKMMEEANADLLFFGHTHKPYHRAMPYEHEGQTRYRHAINIGSVGKPKDGDPRTGYVVVELTPESSLTQKDSIKVEFIRVPYDVETAAQAVEASPLPNEFAQMLRTA
B3: enzyme (Pseudomonas poae, UniProt A0A2S9EJ63); chain MSTQHYDYIIVGGGSAGSVLANRLSAQADKRVLLIEAGADTPEHDTPTDILDGLQPWLPRLAGERYFWPGLNILRASEHGDIPREPQLYEQARILGGGSSVNMMVANRGLPRDYDEWARLGADGWDWQGVLPYFRKLERDLDFGHSHPEQHGQDGPIPIARVDSRHWGSFTRASAQALHTQGLNDIVDQNGRFEDGYFAPAVAIEHDQRVSSARAYLNAAVRARPNLSVWADTTVRQLTVKGQRVTGVQAVRDGRTVELAGDEVILAAGALQSPAFLLRAGIGPADQLRDLGIEVIADRPGVGRNLWDHSSIGLSASLHHPQVPSDEPGAAHLLAARVSSGVEPSVPGDLYLGIAPNAALGLASAVLWVNKPSSSGHLRLRSKDPADYPAVEFNLLSDRRDLERLRQGLRLLARVFAHPAVAAFSGPPRLSRFAQASNEGPLLSELLANDAQLERYLRTHVGGVWHASGTCRIGRADDPQAVVDHAGRVHGVQGLRVADASVFPSIPTANTNLPTLMIAEKIAEAILANA
B4: enzyme (Kluyveromyces lactis, UniProt Q6CSZ6); chain MSSLDINEQRALIKSAHRYISEKLEDHFSSEFLPKALVICGSGLSGISTKIADEPKPLILSYSTIPGFKVSTVPGHSGELIFGYMNGAPVVLMNGRLHSYEGHSLAETVHPIRALHLLGSINVLIVTNAAGGINASFKAGDLMCVYDHINFPGLCGFHPLRGANFDEFGPRFLATSDAYDLELRKLLFSKKKELNIERKIHEGTYSYVHGPTFESRAESRFLRLAGTDAVGMSTVPEVVTARHCGWRVLALSLITNECVVDPPASAHDENPVPIQEGKATHEEVLENSAKASKDVQELIFSVVAEI
Chain of UniProt P0AE18 (whole entry, looked up): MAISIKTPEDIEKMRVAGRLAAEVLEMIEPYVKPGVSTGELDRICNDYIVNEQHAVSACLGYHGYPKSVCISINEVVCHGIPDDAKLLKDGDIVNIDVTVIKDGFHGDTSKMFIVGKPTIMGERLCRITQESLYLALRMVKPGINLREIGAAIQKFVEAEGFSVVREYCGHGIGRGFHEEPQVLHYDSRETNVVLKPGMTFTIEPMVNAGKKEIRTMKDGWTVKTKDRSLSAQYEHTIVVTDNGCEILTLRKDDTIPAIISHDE
Chain of UniProt Q9LJK1 (whole entry, unmodified, looked up): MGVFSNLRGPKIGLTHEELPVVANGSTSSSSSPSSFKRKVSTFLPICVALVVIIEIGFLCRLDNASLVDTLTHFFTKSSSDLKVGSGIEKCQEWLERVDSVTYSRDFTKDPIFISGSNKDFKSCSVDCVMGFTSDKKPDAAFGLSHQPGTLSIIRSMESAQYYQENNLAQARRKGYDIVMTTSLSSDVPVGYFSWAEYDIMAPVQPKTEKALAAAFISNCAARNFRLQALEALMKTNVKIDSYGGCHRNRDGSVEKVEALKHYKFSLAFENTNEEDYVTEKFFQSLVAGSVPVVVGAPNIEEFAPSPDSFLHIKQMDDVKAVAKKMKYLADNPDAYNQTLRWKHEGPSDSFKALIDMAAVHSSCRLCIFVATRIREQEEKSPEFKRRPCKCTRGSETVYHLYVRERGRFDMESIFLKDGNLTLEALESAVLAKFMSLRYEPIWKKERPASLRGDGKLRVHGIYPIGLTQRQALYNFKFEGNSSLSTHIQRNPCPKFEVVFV

| Molecule | target or system | assay | test system | setting | how to read | endpoint | value |
| --- | --- | --- | --- | --- | --- | --- | --- |
| GSGAGKETRV | human MAGI1-2/6 PDZ construct (MBP fusion) | automated holdup | peptide, crude extract | concentration not given, uncorrected, unit not given | baseline: biotin control resin, higher = stronger binding | binding intensity | 0.422 |
| enzyme (UniProt F0RRL2) | O=P(O)(O)O | steady-state kinetics | – | pH 5.5, 37 °C, apparent | – | Km | 2200 µM |
| enzyme (UniProt A0A6P1C6J0) | C[C@@H]1O[C@H](OP(=O)(O)OP(=O)(O)OC[C@H]2O[C@@H](n3cnc4c(=O)[nH]c(N)nc43)[C@H](O)[C@@H]2O)[C@@H](O)[C@H](O)[C@@H]1O | steady-state kinetics | – | pH 7.5, 25 °C, apparent | – | Km | 40 µM |
| enzyme (Arabidopsis thaliana, UniProt Q9LJK1) | C[C@@H]1O[C@H](OP(=O)(O)OP(=O)(O)OC[C@H]2O[C@@H](n3cnc4c(=O)[nH]c(N)nc43)[C@H](O)[C@@H]2O)[C@@H](O)[C@H](O)[C@@H]1O | steady-state kinetics | – | pH 6.5, 30 °C | – | Km | 100 µM |
| HNL C81L/E79H/G176S/H103V/K236M/N104A/T11G (Hevea brasiliensis) | CC(=O)Oc1ccc([N+](=O)[O-])cc1 | steady-state kinetics | – | pH 7.2, 21 °C | – | Km | 30 µM |
| B1 (acsA) | CCCC(=O)O | steady-state kinetics | – | pH 7 | – | Km | 180 µM |
| enzyme (Homo sapiens, UniProt Q08623) | O=c1[nH]cc([C@@H]2O[C@H](COP(=O)(O)O)[C@@H](O)[C@H]2O)c(=O)[nH]1 | steady-state kinetics | – | pH 7, 25 °C | – | Km | 2.1 µM |
| CCT6A | – | co-immunoprecipitation | human RBC membrane | unit not given, added: Band 3 peptide 1-56 bait | baseline: negative control | co-IP enrichment | 0 |
| ACDDQNPWRAYLDLLFPTDTLLLDLLW | – | ex vivo fluorescence imaging | peptide, BALB/c mice, 4T1 tumour-bearing, liver | intravenous, 5 nmol, 4 h post-injection | higher = more uptake | mean fluorescence intensity | 1450 ± 318 a.u. |
| B2 (enzyme C76S) | O=[N+]([O-])c1ccc(OP(=O)(O)O)cc1 | steady-state kinetics | – | pH 7, 37 °C, added: Ni2+ 0.25 mM | – | Km | 13700 µM |
| map (Escherichia coli, UniProt P0AE18) | CSCC[C@H](N)C(=O)Nc1ccc2c(C)cc(=O)oc2c1 | steady-state kinetics | – | added: Co2+ | – | Km | 76 µM |
| B3 (enzyme) | COc1cc(CO)ccc1O | steady-state kinetics | – | pH 8, 30 °C | – | Km | 1590 µM |
| B4 (enzyme) | OC[C@H]1O[C@@H](n2cnc3c(O)ncnc32)[C@H](O)[C@@H]1O | steady-state kinetics | – | – | – | Km | 188 µM |
| DLLQWQTKL | Jurkat T cells expressing 1G4 TCR | NFAT-eGFP reporter, fluorescence microscopy | peptide | concentration not given, HLA-A*02:01 NY-ESO system | – | reporter activation | 0.0447% |
| QDEKVKESYV | human MAGI1-2/6 PDZ construct (MBP fusion) | automated holdup | peptide, crude extract | concentration not given, corrected by standard peak, unit not given | baseline: biotin control resin, higher = stronger binding | binding intensity | 0.079 |

Repeated from above:
| Molecule | target or system | assay | test system | setting | how to read | endpoint | value |
| --- | --- | --- | --- | --- | --- | --- | --- |
| DLLQWQTKL | Jurkat T cells expressing 1G4 TCR | NFAT-eGFP reporter, fluorescence microscopy | peptide | concentration not given, HLA-A*02:01 NY-ESO system | – | reporter activation | 0.0447% |
